Measured values from different studies.
A part holds a random share of what one study measured. Positions count from the first letter of the parent shown.

Block 1
Target: Histone acetyltransferase KAT6A, winged helix 1, GST fusion (KAT6A, Homo sapiens, UniProt Q92794, residues 1-85)
Method: protein binding microarray
Molecule type: double-stranded DNA, one strand shown
Sample: in vitro
Concentration: not given
Setting: 8-mer, flanks averaged, mean of 2 arrays, mostly near background
Reference: not given
Direction: higher = stronger binding
Measurement: E-score
Residues (chain): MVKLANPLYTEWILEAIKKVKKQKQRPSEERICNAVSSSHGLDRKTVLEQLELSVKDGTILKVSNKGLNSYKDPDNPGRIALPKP
TCCTATCA: -0.141
TCCTCCGA: -0.0305
ACTTTTAA: 0.0159
CTCATCTC: -0.14
ACCAGGAC: -0.0452
CCCAATTC: -0.296
TACCATGA: -0.146
GATTCTCC: -0.0632
GGCATTGA: 0.138
TACGCAAA: -0.0797
AAAAGGTT: -0.00984
CCTCCAAG: -0.206
CAAATGCG: 0.131
AGCGCCAT: 0.242
GGTCGGGA: 0.0991
ACGCGTGC: 0.342
ATCTTTAA: -0.0361
AGAGCCAC: -0.12
GCAGTGTA: -0.0804
ACTCCGAG: -0.134
GAACGCCC: 0.0392
ACCTAAAT: -0.087
CCCGGGCA: 0.309
ACACCTCC: -0.0098

Block 2
Target: Ras GTPase-activating protein-binding protein 1, RRM domain (G3BP1, Homo sapiens, UniProt Q13283)
Chain of UniProt Q13283 (whole entry, looked up): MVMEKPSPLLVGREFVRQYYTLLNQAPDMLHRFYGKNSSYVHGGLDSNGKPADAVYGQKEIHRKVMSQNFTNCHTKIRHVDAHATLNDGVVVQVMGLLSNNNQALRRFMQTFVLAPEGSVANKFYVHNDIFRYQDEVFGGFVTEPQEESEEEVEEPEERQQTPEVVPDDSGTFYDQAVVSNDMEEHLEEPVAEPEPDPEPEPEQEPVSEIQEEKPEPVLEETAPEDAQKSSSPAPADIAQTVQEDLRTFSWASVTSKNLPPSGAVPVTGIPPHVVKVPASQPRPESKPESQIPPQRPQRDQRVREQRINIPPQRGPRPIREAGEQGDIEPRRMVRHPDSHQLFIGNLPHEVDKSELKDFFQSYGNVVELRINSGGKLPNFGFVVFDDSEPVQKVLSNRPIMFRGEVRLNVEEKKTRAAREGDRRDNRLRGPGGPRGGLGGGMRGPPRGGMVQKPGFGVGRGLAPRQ
Method: RNA Bind-n-Seq
Molecule type: RNA
Sample: in vitro
Concentration: 1 µM
Setting: whole 134-nt RNA, ends assumed
With: 150 mM KCl
Reference: input library
Direction: higher = stronger binding
Measurement: log2 enrichment
Shared flanks, not repeated: GGGAGUUCUACAGUCCGACGAUC … UGGAAUUCUCGGGUGUCAAGG
CCUCAAGUCCUGUGCUACACAUCGUAUGUACCGAAUCGGAGGAAAAAGGUGGAAAGUAUUAUGUUACGCCGUUCGGAUCUGCACUUCCAG: -0.0474
GCAGGAAGUAAAAACAAAUCGAAAUGCUUCGGAUAGUGGCAGGGGUGGGGGUUGCUAAGGAAAGGGUGGGAUGGGAGUGGGUAAAGAGUU: 1.27
GCAGUAAGUAAAAACAAAUGGAAAUGCUUCGGAUAGUGGCAGGGGUGGGGGUUGCUAAGGAAAGGGUGGGAUGGGAGUGGGUAAAGAGUU: 1.16
UGGGAGGUGGAUUUUGUUUAUUUUUUUAGCUCAUUUCCAGGGGUGGGAAUUUUUUUUUAAUAUGAGUCAUGAAUAAAGUUGUUUUUGAAA: 1.75
CACAGACAACACGCACCCACACAGACACAGAGGGAAGGGGUUGGGAUGAAAACAGGGUGCACAGCAGGGCGGGGUAGGACCCCAGCCCCU: -0.214
CUCAAGUCCUGUGCUACACAUCGUAUGUACCGAAUCGGGUGGGGUGGGUGGGGAAAGUAUUAUGUUACGCCGUUCGGAUCUGCACUUCCA: 1.04
UCAAGUCCUGUGCUACACAUCGUAUGUACCGAAUCGGGUUUUUGGGAGGGUGGGAAAGUAUUAUGUUACGCCGUUCGGAUCUGCACUUCC: 0.55
UCCUGUGCUACACAUCGUAUGUACCGAAUCGGGGAAAAAGGGGAAAAAGGGGAAAAAGGAAAGUAUUAUGUUACGCCGUUCGGAUCUGCA: -0.0586

Block 3
Target: CCNE1, cyclin fold, Cln2 fusion (human)
Method: yeast growth competition, sequencing
Sample: yeast
Setting: strong parent motif
Reference: not given
Direction: higher = stronger binding
Measurement: normalised enrichment score
Starting sequence: GMNC docking peptide (human); KNAKRNLSSEFAN
KNAKRNLSSESAN [F11S]: 0.482
KNAKRNLDSEFAN [S8D]: 1.08
KNAWRNLSSEFAN [K4W]: 0.0994
KNAKRNDSSEFAN [L7D]: 0.382
KTAKRNLSSEFAN [N2T]: 1.89
KNAKNNLSSEFAN [R5N]: 0.039
KNAKVNLSSEFAN [R5V]: -0.204
KNAKRNLSSNFAN [E10N]: 0.409
KNAKRNLSSEYAN [F11Y]: 0.155
KNAERNLSSEFAN [K4E]: -0.146
KNLKRNLSSEFAN [A3L]: 0.119
KNAKRQLSSEFAN [N6Q]: 0.376
KNAKRNLPSEFAN [S8P]: 0.0402
KNAYRNLSSEFAN [K4Y]: 0.366
KNAKLNLSSEFAN [R5L]: 0.18

Block 4
Target: PABPC1L2, full length, GST fusion (mouse, UniProt A0ABA7IW68)
Method: RNAcompete
Molecule type: RNA
Sample: in vitro
Concentration: 20 nM
Setting: 7-mer, probes averaged, single round
Reference: mean of 7-mers
Direction: higher = stronger binding
Measurement: 7-mer Z-score
Construct (chain): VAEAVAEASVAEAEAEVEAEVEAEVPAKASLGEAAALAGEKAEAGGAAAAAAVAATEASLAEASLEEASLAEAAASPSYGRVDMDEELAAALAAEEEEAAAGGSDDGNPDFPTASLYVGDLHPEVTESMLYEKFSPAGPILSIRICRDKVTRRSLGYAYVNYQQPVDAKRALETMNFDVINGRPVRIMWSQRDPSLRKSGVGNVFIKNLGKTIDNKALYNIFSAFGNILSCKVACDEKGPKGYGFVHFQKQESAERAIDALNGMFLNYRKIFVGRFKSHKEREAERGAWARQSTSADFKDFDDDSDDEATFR
AUCGCGA: -0.151
CUGCACC: -0.277
UUCCGAG: -0.137
AUAGGAG: 0.0225
ACUCGGC: -0.162
UCACAUC: -0.255
GGUGCUA: -0.021
UCGUGCA: -0.322
AAGAUGG: 0.447
AUAUUAU: -0.197
UCUGAAU: -0.204
AGAAUCA: -0.012
UUUAACG: -0.19
GCUCUCC: -0.316
CUGGCUU: -0.251
CCUGGUU: -0.478
AGCUGGG: 0.278
GCAAGGA: 0.273
UUUAGGC: 0.148
CAACUAG: -0.202
AGAACGC: -0.079
UUCUCCG: -0.34
GUGUGAG: -0.253
GGCCACA: -0.153
CCGUUCG: -0.508

Block 5
Target: Phosphate system positive regulatory protein PHO4, full length, GST-tagged (PHO4, Saccharomyces cerevisiae, UniProt P07270, residues 1-312)
Method: competition protein-binding microarray
Molecule type: double-stranded DNA, one strand shown
Sample: in vitro
Concentration: 2 µM
Setting: whole 60-bp probe, lowest competitor level
With: Cbf1 competitor, 0.05 µM
Direction: higher = stronger binding
Measurement: fluorescence intensity
Shared flanks, not repeated: … GTCTTGATTCGCTTGACGCTGCTG
Target sequence (chain): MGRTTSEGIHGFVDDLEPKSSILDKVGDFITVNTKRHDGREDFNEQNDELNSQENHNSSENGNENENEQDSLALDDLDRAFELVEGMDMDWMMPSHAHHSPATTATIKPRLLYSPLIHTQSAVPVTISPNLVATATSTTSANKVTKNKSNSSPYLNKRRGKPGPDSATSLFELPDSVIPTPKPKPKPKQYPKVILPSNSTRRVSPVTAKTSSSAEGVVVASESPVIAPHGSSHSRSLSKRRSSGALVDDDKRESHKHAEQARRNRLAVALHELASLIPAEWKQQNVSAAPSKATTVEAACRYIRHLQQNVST
GCCGGATCCCGGAATAGCGTGATGGTCTACTCCTGT: 4610 a.u.
CTAACGAAGGTTTGTTCCGTGGGTGACAAGCCAAGT: 4140 a.u.
CTTTTGGATTCCCATCACGTCATGAAAGATTCTTCT: 4270 a.u.
AGTTTCTTGAAGATCTGCATGACAAATAATGTTTGC: 4770 a.u.
CAATTGGGTATGAATCACACGCAATCAGCCCAATCA: 4420 a.u.
ATCGTTCAATTTATCTTCGGCATTTTTCTGAATTTT: 3470 a.u.
CTGTTTTAACATTGGCTCGTGACGGACTAGATCCTC: 7720 a.u.
GCAAGTCGACACAGCAACGTGTGGATAATGGATGAG: 11500 a.u.
CTTTCCCGATCTTGACCCGTGGGTGTAGCACATTTG: 11300 a.u.
TCTCCCAAAATTTCACACGTGATGGGATGATTTTGG: 15600 a.u.
CTAACGAAGGTTTTTCACGTGTATTACAAGCCAAGT: 12100 a.u.
CATTCACTATTTTGTCATGTGACGGAATGCCCCAAA: 7240 a.u.
AAAGCGGTAATTTTTCACGTGTTGTCAAATATCTAT: 14900 a.u.
CTTAGGAATGATTAAAGCATGACAATCAGCAGTAGG: 5720 a.u.
CGACTGCGCTGTAACCATGCGTGGACCAGCCAATTT: 7140 a.u.
ATAGCAAAGAACCGTCACAGATTCATTATTGACCTT: 3120 a.u.
TGCGCAACAACTTGACCTGTGGGTGTATGTCTAGAA: 4620 a.u.
AACAGTGATATTCGTCACGTGACTCGGATAAAACTC: 15300 a.u.
AGTGCTCATACGCATCATATGACATGGATGATACGG: 5870 a.u.
AAATCATTGATTTCCAATCTTTAAAAAATCCATCCA: 2720 a.u.
GACCGAACGCCCAACATAAATTAGAATAAGTCGTCA: 3090 a.u.
ATATGTGTCCGTAACCTCGTAGTTAGTGGCTGATTT: 3680 a.u.
TCCTCTACCCGACGCTTCGTGGGTATGAGAAGTAGT: 8500 a.u.
ACCGCTGAAACCAAACATGTGATGAATTGGTCAACA: 9670 a.u.
CACTTCCTGGGCATCCACATGCGAAGTTGAGCTAAA: 8760 a.u.

Block 6
Target: UBE2C UBC core domain (UniProt O00762)
Method: yeast two-hybrid
Sample: yeast
Setting: mostly zero background
Reference: not given
Direction: higher = stronger interaction
Measurement: lacZ reporter activity
B1: VPS41 RING domain (UniProt P49754); chain KGVLVDEENICESCLSPILPSDAAKPFSVVVFHCRHMFHKECLPMPSMNSAAQFCNICSAKNRGPGSAI
B2: SH3RF2 RING domain (UniProt Q8TEC5); chain DDLTLLDLLECPVCFEKLDVTAKVLPCQHTFCKPCLQRVFKAHKELRCPECRTPVFSNIEAL
B3: TRIM13 RING domain (UniProt O60858); chain MELLEEDLTCPICCSLFDDPRVLPCSHNFCKKCLEGILEGSVRNSLWRPAPFKCPTCRKETSATGINS
B4: NEURL1 RING domain (UniProt O76050); chain VTPGLGQWSDECTICYEHAVDTVIYTCGHMCLCYACGLRLKKALHACCPICRRPIKDIIKT
B5: RNF208 RING domain (UniProt Q9H0X6); chain SSAAAGEPLECPTCGHSYNVTQRRPRVLSCLHSVCEQCLQILYESCPKYKFISCPTCRRETVLFTDYG
B6: TRIM5 RING domain (UniProt Q9C035); chain ILVNVKEEVTCPICLELLTQPLSLDCGHSFCQACLTANHKKSMLDKGESSCPVCRISYQPENIRP
B7: TRIM4 RING domain (UniProt Q9C037); chain EAEDIQEELTCPICLDYFQDPVSIECGHNFCRGCLHRNWAPGGGPFPCPECRHPSAPAALRP
Residues (chain): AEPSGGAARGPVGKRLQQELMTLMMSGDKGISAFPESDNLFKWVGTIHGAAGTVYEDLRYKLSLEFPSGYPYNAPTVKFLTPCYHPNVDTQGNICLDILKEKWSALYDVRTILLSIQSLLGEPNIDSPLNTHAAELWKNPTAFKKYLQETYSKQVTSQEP
B1 (VPS41 RING domain): 0
VEPSEENSKDCVVCQNGTVNWVLLPCRHTCLCDGCVKYFQQCPMCRQFVQESFALC (CGRRF1 RING domain (UniProt Q99675)): 0
B2 (SH3RF2 RING domain): 0
B3 (TRIM13 RING domain): 0
B4 (NEURL1 RING domain): 0
FQGDVDEDLICPICSGVLEEPVQAPHCEHAFCNACITQWFSQQQTCPVDRSVVTVAHLRP (RNF41 RING domain (UniProt Q9H4P4)): 0
B5 (RNF208 RING domain): 0
QVDKAVFHMQSVKCLKCQEQKRAVLPCQHAALCELCAEGSECPICQPGRAHTLQS (UNK RING domain (UniProt Q9C0B0)): 0
PAELEVQASECVVCLEREAQMIFLNCGHVCCCQQCCQPLRTCPLCRQDIAQRLRIY (LRSAM1 RING domain (UniProt Q6UWE0)): 0
B6 (TRIM5 RING domain): 0
B7 (TRIM4 RING domain): 0

Repeated from above (block 3):
KNAKRNLSSESAN [F11S]: 0.482
KNAKRNLDSEFAN [S8D]: 1.08
KNAWRNLSSEFAN [K4W]: 0.0994
KNAKRNDSSEFAN [L7D]: 0.382
KTAKRNLSSEFAN [N2T]: 1.89
KNAKNNLSSEFAN [R5N]: 0.039
KNAKVNLSSEFAN [R5V]: -0.204
KNAKRNLSSNFAN [E10N]: 0.409
KNAKRNLSSEYAN [F11Y]: 0.155
KNAERNLSSEFAN [K4E]: -0.146
KNLKRNLSSEFAN [A3L]: 0.119
KNAKRQLSSEFAN [N6Q]: 0.376
KNAKRNLPSEFAN [S8P]: 0.0402
KNAYRNLSSEFAN [K4Y]: 0.366
KNAKLNLSSEFAN [R5L]: 0.18
